Measured values from different studies.
Protocols differ between the studies behind these lines.

Molecule	target or system	assay	system	setting	endpoint	result
CC[C@H](C)[C@H](NC(=O)[C@H](CC(C)C)NC(=O)[C@H](Cc1c[nH]c2ccccc12)NC(=O)[C@H](CCC(N)=O)NC(=O)[C@@H](NC(=O)[C@H](Cc1ccccc1)NC(=O)[C@H](C)NC(=O)[C@H](CCCCNC(=O)COCCOCCNC(=O)COCCOCCNC(=O)CC[C@H](NC(=O)CCCCCCCCCCCCCCCCCCC(=O)O)C(=O)O)NC(=O)[C@H](CCC(N)=O)NC(=O)[C@H](C)NC(=O)[C@@H](NC(=O)[C@H](CCCCN)NC(=O)[C@H](CC(=O)O)NC(=O)[C@H](CC(C)C)NC(=O)C(C)(C)NC(=O)[C@@H](NC(=O)[C@H](CO)NC(=O)[C@H](Cc1ccc(O)cc1)NC(=O)[C@H](CC(=O)O)NC(=O)[C@H](CO)NC(=O)[C@@H](NC(=O)[C@H](Cc1ccccc1)NC(=O)[C@@H](NC(=O)CNC(=O)[C@H](CCC(=O)O)NC(=O)C(C)(C)NC(=O)[C@@H](N)Cc1ccc(O)cc1)[C@@H](C)O)[C@@H](C)O)[C@@H](C)CC)[C@@H](C)CC)C(C)C)C(=O)N[C@@H](C)C(=O)NCC(=O)NCC(=O)N1CCC[C@H]1C(=O)N[C@@H](CO)C(=O)N[C@@H](CO)C(=O)NCC(=O)N[C@@H](C)C(=O)N1CCC[C@H]1C(=O)N1CCC[C@H]1C(=O)N1CCC[C@H]1C(=O)N[C@@H](CO)C(N)=O	–	–	healthy human	1.0 mg, single ascending dose	abdominal distension	0%
YKTFPPTEPK	human PBMC CD8+ T cells	T cell response	peptide	–	positive donors	1 donors
O=c1cc(O)c2ccccc2o1	Replicase polyprotein 1ab, main protease (rep, Severe acute respiratory syndrome coronavirus 2, UniProt P0DTD1)	reporter gene (mKate2), inhibitor	–	20 µM	inhibition	-0.882%
DFLEYHDVRVVLDFI	human CD4 T cells	AIM	peptide	–	responding donors	18%
Nc1ncnc2c([C@@H]3N[C@H](CO)[C@@H](O)[C@H]3O)c[nH]c12	Marburg virus	antibody staining	HeLa, Musoke	400 µM	antigen-positive cells	0.3%

Excerpt of the above:
Molecule	target or system	assay	system	setting	endpoint	result
CC[C@H](C)[C@H](NC(=O)[C@H](CC(C)C)NC(=O)[C@H](Cc1c[nH]c2ccccc12)NC(=O)[C@H](CCC(N)=O)NC(=O)[C@@H](NC(=O)[C@H](Cc1ccccc1)NC(=O)[C@H](C)NC(=O)[C@H](CCCCNC(=O)COCCOCCNC(=O)COCCOCCNC(=O)CC[C@H](NC(=O)CCCCCCCCCCCCCCCCCCC(=O)O)C(=O)O)NC(=O)[C@H](CCC(N)=O)NC(=O)[C@H](C)NC(=O)[C@@H](NC(=O)[C@H](CCCCN)NC(=O)[C@H](CC(=O)O)NC(=O)[C@H](CC(C)C)NC(=O)C(C)(C)NC(=O)[C@@H](NC(=O)[C@H](CO)NC(=O)[C@H](Cc1ccc(O)cc1)NC(=O)[C@H](CC(=O)O)NC(=O)[C@H](CO)NC(=O)[C@@H](NC(=O)[C@H](Cc1ccccc1)NC(=O)[C@@H](NC(=O)CNC(=O)[C@H](CCC(=O)O)NC(=O)C(C)(C)NC(=O)[C@@H](N)Cc1ccc(O)cc1)[C@@H](C)O)[C@@H](C)O)[C@@H](C)CC)[C@@H](C)CC)C(C)C)C(=O)N[C@@H](C)C(=O)NCC(=O)NCC(=O)N1CCC[C@H]1C(=O)N[C@@H](CO)C(=O)N[C@@H](CO)C(=O)NCC(=O)N[C@@H](C)C(=O)N1CCC[C@H]1C(=O)N1CCC[C@H]1C(=O)N1CCC[C@H]1C(=O)N[C@@H](CO)C(N)=O	–	–	healthy human	1.0 mg, single ascending dose	abdominal distension	0%
